Results of several laboratories.
Lines come from different studies, so protocols differ. ± marks the error that the study gave.

SMILES | tested on | test | system | setting | scale | quantity | value
CSCC[C@H](N)C(=O)N[C@@H](C)C(=O)N[C@@H](CCCNC(=N)N)C(=O)N[C@@H](CCCNC(=N)N)C(=O)N[C@@H](CC(=O)O)C(=O)N[C@@H](CCCCN)C(=O)N[C@H](C(=O)N[C@@H](CC(=O)O)C(=O)N[C@@H](Cc1ccccc1)C(=O)N[C@@H](C)C(=O)N[C@@H](CCCNC(=N)N)C(=O)N[C@@H](CCCNC(=N)N)C(=O)N[C@@H](CCCNC(=N)N)C(=O)N[C@@H](CCCNC(=N)N)C(=O)NCCCCCC(=O)NCCCCC(NC(=O)CCCCCNC(=O)[C@H](CCCNC(=N)N)NC(=O)[C@H](CCCNC(=N)N)NC(=O)[C@H](CCCNC(=N)N)NC(=O)[C@H](CCCNC(=N)N)NC(=O)[C@H](C)NC(=O)[C@H](Cc1ccccc1)NC(=O)[C@H](CC(=O)O)NC(=O)[C@@H](NC(=O)[C@H](CCCCN)NC(=O)[C@H](CC(=O)O)NC(=O)[C@H](CCCNC(=N)N)NC(=O)[C@H](CCCNC(=N)N)NC(=O)[C@H](C)NC(=O)[C@@H](N)CCSC)[C@@H](C)O)C(=O)NCCCCC(NC(=O)C(CCCCNC(=O)CCCCCNC(=O)[C@H](CCCNC(=N)N)NC(=O)[C@H](CCCNC(=N)N)NC(=O)[C@H](CCCNC(=N)N)NC(=O)[C@H](CCCNC(=N)N)NC(=O)[C@H](C)NC(=O)[C@H](Cc1ccccc1)NC(=O)[C@H](CC(=O)O)NC(=O)[C@@H](NC(=O)[C@H](CCCCN)NC(=O)[C@H](CC(=O)O)NC(=O)[C@H](CCCNC(=N)N)NC(=O)[C@H](CCCNC(=N)N)NC(=O)[C@H](C)NC(=O)[C@@H](N)CCSC)[C@@H](C)O)NC(=O)CCCCCNC(=O)[C@H](CCCNC(=N)N)NC(=O)[C@H](CCCNC(=N)N)NC(=O)[C@H](CCCNC(=N)N)NC(=O)[C@H](CCCNC(=N)N)NC(=O)[C@H](C)NC(=O)[C@H](Cc1ccccc1)NC(=O)[C@H](CC(=O)O)NC(=O)[C@@H](NC(=O)[C@H](CCCCN)NC(=O)[C@H](CC(=O)O)NC(=O)[C@H](CCCNC(=N)N)NC(=O)[C@H](CCCNC(=N)N)NC(=O)[C@H](C)NC(=O)[C@@H](N)CCSC)[C@@H](C)O)C(N)=O)[C@@H](C)O (stereo partly shown) | – | – | C57BL/6 mouse female, brain | dose not given, 3 h | reference: total | mean tissue distribution | 0.28%
CC[C@H](C)[C@H](NC(=O)[C@H](CCCCN)NC(=O)CNC(=O)[C@H](CC(C)C)NC(=O)[C@H](Cc1ccccc1)NC(=O)[C@H](CCCCN)NC(=O)[C@H](CO)NC(=O)[C@H](Cc1ccccc1)NC(=O)[C@H](Cc1c[nH]c2ccccc12)NC(=O)[C@H](CCC(N)=O)NC(=O)[C@@H](NC(=O)[C@H](Cc1ccccc1)NC(=O)CCCCCNC(=O)CN1CCN(CC(=O)O)CCN(CC(=O)O)CCN(CC(=O)O)CC1)C(C)C)C(=O)N[C@@H](CCC(=O)O)C(=O)N1CCC[C@H]1C(=O)N[C@@H](CC(=O)O)C(=O)N[C@H](C(=O)N[C@@H](CO)C(=O)N[C@@H](CCC(N)=O)C(=O)N[C@H](C(=O)N[C@@H](CCC(N)=O)C(=O)N[C@@H](CC(=O)O)C(=O)N1CCC[C@H]1C(=O)N[C@@H](CC(N)=O)C(=O)N[C@@H](CC(=O)O)C(=O)N[C@@H](CCC(N)=O)C(=O)N[C@@H](Cc1ccc(O)cc1)C(=O)N[C@@H](CCC(=O)O)C(=O)N1CCC[C@H]1C(=O)N[C@@H](Cc1ccccc1)C(=O)O)C(C)C)C(C)C [copper-64 labelled] | – | – | GZMB-/- mice, CT26 tumour-bearing, kidneys | 2 h, checkpoint inhibitor-treated | – | tissue uptake | 30.3 ± 4.5 %ID/g
CC(C)C[C@H](NC(=O)[C@H](C)NC(=O)[C@H](CCCCN)NC(=O)CCNC(=S)Nc1ccc2c(c1)C(=O)OC21c2ccc(O)cc2Oc2cc(O)ccc21)C(=O)N[C@@H](CCC(=O)O)C(=O)N[C@H](C(=O)N[C@@H](CC(C)C)C(=O)N[C@@H](CCCNC(=N)N)C(=O)N[C@@H](CCCNC(=N)N)C(=O)N[C@H](C(=O)NCC(=O)N[C@@H](CC(=O)O)C(=O)NCC(=O)N[C@H](C(=O)N[C@@]1(C)CCC/C=C\CCC[C@@](C)(C(=O)N[C@H](C(=O)N[C@@H](C)C(=O)N[C@@H](Cc2ccccc2)C(N)=O)[C@@H](C)O)NC(=O)[C@H](Cc2c[nH]cn2)NC(=O)[C@H](CC(N)=O)NC(=O)[C@H](CCCNC(=N)N)NC1=O)C(C)C)C(C)C)[C@@H](C)O | – | circular dichroism | potassium phosphate buffer | 20 µM, pH 7.5 | – | α-helicity | 91%
CN[C@H](CC(C)C)C(=O)N[C@H]1C(=O)N[C@@H](CC(N)=O)C(=O)N[C@H]2C(=N)N[C@H]3C(=O)N[C@H](C(=O)N[C@H](C(=O)NCCCNC(=N)N)c4cc(O)cc(O)c4-c4cc3ccc4O)[C@H](O)c3ccc(c(Cl)c3)Oc3cc2cc(c3O[C@@H]2O[C@H](CO)[C@@H](O)[C@H](O)[C@H]2O[C@H]2C[C@](C)(NCc3ccc(-c4ccc(Cl)cc4)cc3)[C@H](O)[C@H](C)O2)Oc2ccc(cc2Cl)[C@H]1O | – | – | mouse | intravenous, 25 mg/kg | – | AUC | 316 µM·h
N#[11C]c1ccc(-c2csc(NN=C3CCCC3)n2)cc1 | – | – | C57BL/6 mice, male, muscle | intravenous, 3 MBq, 1 min | – | radioactivity uptake | 2.28 ± 0.69 %ID/g
COc1ccccc1-c1n[nH]c2nc(NC3CCN(C(=O)Cc4ccc(F)cc4F)CC3)ncc12 | – | bead binding, competition bead pull-down, measured: LINJ.23.0410 | Leishmania donovani extract | 10 µM | reference: vehicle | relative abundance | 0.97
O=C1NC2(CC2)COc2ncc(F)cc2[C@H]2COCCN2c2ccn3ncc1c3n2 | – | – | Sprague-Dawley rat, female, blood | oral, 5 mg/kg/day, 4 weeks, end of treatment, subacute toxicity | – | mean corpuscular volume | 64.1 ± 3.3 fL
CC[C@H](C)[C@H](NC(=O)[C@H](CO)NC(=O)[C@H](Cc1ccc(O)cc1)NC(=O)[C@H](Cc1ccc(O)cc1)NC(=O)[C@H](CC(N)=O)NC(=O)CNC(=O)[C@H](CO)NC(=O)[C@H](Cc1ccc(O)cc1)NC(=O)[C@H](CO)NC(=O)[C@H](CO)NC(=O)[C@H](CC(N)=O)NC(=O)COCCOCCNC(=O)CN1CCN(CC(=O)O)CCN(CC(=O)O)CCN(CC(=O)O)CC1)C(=O)N[C@@H](CC(C)C)C(N)=O [copper-64 labelled] | – | dynamic PET | KPC mouse Ptf1a-CreER tdTomato, pancreas | intravenous, 4.6 MBq/mouse, 0.6 min, 84 d after tamoxifen | – | tissue uptake | 10.9 %ID/mL
COc1ccccc1-c1n[nH]c2nc(N[C@H]3CC[C@H](NS(=O)(=O)CC(C)C)CC3)ncc12 | – | bead binding, competition bead pull-down, measured: LINJ.19.1590 | Leishmania donovani extract | 10 µM | reference: vehicle | relative abundance | 0.98
CC(C)(C)C(=O)OCOP(=O)(OCOC(=O)C(C)(C)C)C1CCCN(O)C1=O (stereo not shown) | MCF7 | – | – | – | – | log TGI | -5.41 log M
CC(C)C[C@H](NC(=O)CNC(=O)[C@H](Cc1ccccc1)NC(=O)[C@@H](NC(=O)[C@@H](NC(=O)c1cccc(S(=O)(=O)F)c1)[C@@H](C)O)C(C)C)C(=O)N[C@@H](CC(N)=O)C(=O)N[C@H](C(=O)N[C@@H](Cc1c[nH]c2ccccc12)C(=O)N[C@@H](CCCCN)C(=O)N[C@@H](CCCNC(=N)N)C(=O)N[C@@H](Cc1ccc(O)cc1)C(=O)N[C@@H](CO)C(=O)N[C@@H](CCCCN)C(=O)NCC(=O)N[C@@H](CCCCNc1ccc([N+](=O)[O-])cc1[N+](=O)[O-])C(N)=O)C(C)C | – | chemical stability, LC-MS, UV trace | PBS/DMSO/water | 52 µM, 24 h, 10% DMSO, 80% water | – | intact compound remaining | ~50%
CN1Cc2cc(Cl)ccc2-n2c(nnc2C2CCN(c3cccc([18F])n3)CC2)C1 | – | – | C57BL/6 mouse male, urinary bladder | intravenous, 3.7 MBq, 15 min | – | tissue uptake | 4.92 ± 0.73 %ID/g
Cc1nc2cccc(OCC(C)(C)C(=O)NC(C)C)c2c(N)c1C(=O)[O-].[Na+] | Salmonella typhimurium | – | TA98 | 0.80 mg per plate, without S9, preincubation | – | revertant colonies per plate | 23 ± 4
Cc1ccccc1-c1ccc(-c2nc(-c3ccc(CN(C)CCCC(=O)O)c([18F])c3)no2)cc1C(F)(F)F | – | – | rat, spleen | 1 h | – | tracer uptake | 0.3 %ID/g
CC(CCC(=O)NCC(=O)O)C1CCC2C3C(O)CC4CC(OC5OC(C(=O)O)C(O)C(O)C5O)CCC4(C)C3CCC12C (stereo not shown) | – | – | women, T/C genotype, plasma | dose not given, geometric mean | – | plasma concentration | 29.6 ng/mL
CC(C(=O)O)n1nc(Cn2cc3cc(OCC[18F])c(Cl)cc3n2)c2ccccc2c1=O (racemic) | – | HPLC | nonhuman primate, plasma | 120 min post-injection | reference: plasma radioactivity | parent radiotracer | 78%
CCCCC[C@H]1C(=O)N[C@H](C)C(=O)N(C)[C@@H](CCCCC)C(=O)N[C@H](C)C(=O)N(C)[C@@H](CCCCC)C(=O)N(C)[C@H](C)C(=O)N(C)[C@@H](CCCCC)C(=O)N(C)[C@H](C)C(=O)N1C | – | PAMPA, HPLC-UV | – | 500 µM, pH 7.4 | – | log Papp | -5.39 ± 0.03
CC[C@H](C)[C@@H]1NC(=O)[C@@H](NC(=O)[C@H](CCCCN)NC(=O)[C@H](CC(C)C)NC(=O)[C@H](CC(C)C)NC(=O)CNC(C)=O)CN(C)C(=O)c2ccc(=O)n(c2)CC[C@@H](C(=O)N[C@@H](CC(C)C)C(N)=O)NC(=O)[C@H]([C@@H](C)O)NC(=O)[C@H](CCCCN)NC1=O | – | circular dichroism | water | 66 µM | – | helicity | 0%
CN(C)[C@H]1C[C@@]23CC[C@@]4(O2)C(=CC[C@]2(C)[C@@H](c5ccc6ccncc6c5)CC[C@H]24)C=C3[C@@H](O)[C@@H]1O | Mitogen-activated protein kinase kinase kinase 5 (MAP3K5, Homo sapiens, UniProt Q99683) | ATP probe labelling, inhibitor, KiNativ profiling | – | 0.1 µM | – | inhibition | 12.4%

For quick reference, copied from above:
SMILES | tested on | test | system | setting | scale | quantity | value
Cc1ccccc1-c1ccc(-c2nc(-c3ccc(CN(C)CCCC(=O)O)c([18F])c3)no2)cc1C(F)(F)F | – | – | rat, spleen | 1 h | – | tracer uptake | 0.3 %ID/g
CC(CCC(=O)NCC(=O)O)C1CCC2C3C(O)CC4CC(OC5OC(C(=O)O)C(O)C(O)C5O)CCC4(C)C3CCC12C (stereo not shown) | – | – | women, T/C genotype, plasma | dose not given, geometric mean | – | plasma concentration | 29.6 ng/mL
